# Measured values collected from several papers.
# A part holds a random share of what one study measured.

# Set 1
# Target: Histone acetyltransferase KAT6A, both winged helices, GST fusion (KAT6A, Homo sapiens, UniProt Q92794, residues 1-181)
# Technique: protein binding microarray
# Molecule type: double-stranded DNA, one strand shown
# Matrix: in vitro
# Tested at: not given
# Notes: 8-mer, flanks averaged, mean of 2 arrays, mostly near background
# Baseline: not given
# Direction: higher = stronger binding
# Construct (chain): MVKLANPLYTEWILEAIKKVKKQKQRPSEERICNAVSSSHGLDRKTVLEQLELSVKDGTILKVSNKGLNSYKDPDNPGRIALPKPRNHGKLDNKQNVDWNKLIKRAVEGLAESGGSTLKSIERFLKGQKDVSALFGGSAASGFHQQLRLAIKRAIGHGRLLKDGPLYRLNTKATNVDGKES
Strand,E-score
ACAAGTGC,-0.163
ATCCGGAT,-0.124
TAAAGCTA,-0.173
CAGACAGC,-0.0288
CTCTTTAC,0.031
ACGGAATG,0.0893
AATTTTGA,-0.0736
TACTGTAA,-0.0712

# Set 2
# Target: Sal-like protein 4, full length isoform A (SALL4, Homo sapiens, UniProt Q9UJQ4, residues 1-1053)
# UniProt Q9UJQ4, sequence (whole entry, looked up): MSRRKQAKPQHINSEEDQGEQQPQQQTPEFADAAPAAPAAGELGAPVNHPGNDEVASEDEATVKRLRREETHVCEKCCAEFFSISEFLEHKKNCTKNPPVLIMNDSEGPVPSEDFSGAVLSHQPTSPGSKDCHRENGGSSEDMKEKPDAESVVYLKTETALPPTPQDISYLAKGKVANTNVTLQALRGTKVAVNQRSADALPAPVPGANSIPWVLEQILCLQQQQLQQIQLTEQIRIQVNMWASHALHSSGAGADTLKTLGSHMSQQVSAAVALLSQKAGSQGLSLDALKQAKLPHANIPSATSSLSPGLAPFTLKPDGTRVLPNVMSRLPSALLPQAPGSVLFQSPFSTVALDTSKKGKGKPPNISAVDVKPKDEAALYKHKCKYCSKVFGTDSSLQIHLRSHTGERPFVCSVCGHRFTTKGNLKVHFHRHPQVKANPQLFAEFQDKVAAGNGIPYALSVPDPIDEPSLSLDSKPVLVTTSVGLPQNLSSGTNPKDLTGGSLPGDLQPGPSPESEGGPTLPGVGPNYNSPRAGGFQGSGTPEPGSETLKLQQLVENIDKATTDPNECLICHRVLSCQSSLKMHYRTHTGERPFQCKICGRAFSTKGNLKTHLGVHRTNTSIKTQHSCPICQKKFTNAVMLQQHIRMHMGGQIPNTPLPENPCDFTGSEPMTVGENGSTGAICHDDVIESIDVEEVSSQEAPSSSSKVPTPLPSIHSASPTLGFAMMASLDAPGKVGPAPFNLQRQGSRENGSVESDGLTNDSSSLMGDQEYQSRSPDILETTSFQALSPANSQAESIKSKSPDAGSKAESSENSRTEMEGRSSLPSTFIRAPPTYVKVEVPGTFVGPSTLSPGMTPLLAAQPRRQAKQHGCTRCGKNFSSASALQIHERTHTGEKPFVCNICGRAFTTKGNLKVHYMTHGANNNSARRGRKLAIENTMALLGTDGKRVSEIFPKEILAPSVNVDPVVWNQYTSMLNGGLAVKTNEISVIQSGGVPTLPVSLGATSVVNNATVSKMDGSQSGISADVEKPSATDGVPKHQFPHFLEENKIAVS
# Technique: universal PBM
# Molecule type: double-stranded DNA, one strand shown
# Matrix: in vitro
# Tested at: 600 nM
# Notes: 8-mer, flanks averaged, mean of replicates
# Direction: higher = stronger binding
Strand,E-score
AACCCTCG,-0.184
AACATCGC,-0.191
ATCATACG,0.207
AGCACCGG,-0.279
CTAGTTTC,-0.0513
AACACTCA,0.0499
GAGCGTTA,-0.0342
CCTTAGCA,-0.0486

# Set 3
# Cell line: HEK-293T
# Effect on: pseudovirus infection
# Technique: FDA-approved drug library screen
# Organism: VSV pseudotyped with SARS-CoV-2 spike
# Tested at: 10 µM
# Time: 16 h
# Baseline: vehicle-treated
SMILES,GFP-positive cells [%]
CNCC[C@@H](Oc1ccccc1C)c1ccccc1,52.4
CC(=O)OCC(COC(C)=O)OC(C)=O,95.5
CN1CCN(CCCN2c3ccccc3Sc3ccc(C(F)(F)F)cc32)CC1,8.63
CC[C@H]1OC(=O)[C@H](C)[C@@H](O[C@H]2C[C@@](C)(OC)[C@@H](O)[C@H](C)O2)[C@H](C)[C@@H](O[C@@H]2O[C@H](C)C[C@H](N(C)C)[C@H]2O)[C@](C)(O)C[C@@H](C)[C@@H]2N[C@@H](COCCOC)O[C@H]([C@H]2C)[C@]1(C)O,91.9
Nc1ccn([C@@H]2O[C@H](CO)[C@@H](O)C2(F)F)c(=O)n1,95.7

# Set 4
# Target: Replicase polyprotein 1ab, polymerase (rep, Severe acute respiratory syndrome coronavirus 2, UniProt P0DTD1)
# Effect on: enzyme activity
# Action: inhibitor
# Tested at: 20 µM
Structure (SMILES),inhibition [%]
CNC(=O)c1cc(Oc2ccc(NC(=O)Nc3ccc(Cl)c(C(F)(F)F)c3)cc2)ccn1,2.63
CCC/C=C1\OC(=O)C2=C1CCC=C2,4.03
CC(C)CC(=O)N[C@H](C(=O)N[C@H](C(=O)N[C@@H](CC(C)C)[C@@H](O)CC(=O)N[C@@H](C)C(=O)N[C@@H](CC(C)C)[C@@H](O)CC(=O)O)C(C)C)C(C)C,2.84
O=C(NC[C@H]1CN(c2ccc(N3CCOCC3=O)cc2)C(=O)O1)c1ccc(Cl)s1,-5.16
CCCN(CCC)[C@@H]1CCc2c(OC)cccc2[C@@H]1C,-2.53
O=S(=O)(N[C@H]1CC[C@@](c2cc(F)ccc2F)(S(=O)(=O)c2ccc(Cl)cc2)CC1)C(F)(F)F,3.07
COC(=O)C1=C(C)NC(C)=C(C(=O)OC/C=C/c2ccccc2)C1c1cccc([N+](=O)[O-])c1 (stereo not shown),0.33
CN1CCOC(c2ccccc2)c2ccccc2C1 (stereo not shown),14.8
O=C(O)CCCCCCCC(=O)O,-2.08
Cc1ccc(F)cc1C(=O)Nc1ccc(C(=O)N2Cc3cccn3Cc3ccccc32)c(Cl)c1,-0.77
C=CC(=O)Nc1cccc(C)c1Nc1ncc2cc(-c3c(Cl)c(OC)cc(OC)c3Cl)ccc2n1,4.06
CCCn1c(=O)c2[nH]cnc2n(-c2ccc(Cl)cc2)c1=O,1.99
Cc1nc2ccccn2c(=O)c1CCN1CCC(C(=O)c2ccc(F)cc2)CC1,-0.92

# Some of these lines once more (set 4):
Structure (SMILES),inhibition [%]
CN1CCOC(c2ccccc2)c2ccccc2C1 (stereo not shown),14.8
O=C(O)CCCCCCCC(=O)O,-2.08
Cc1ccc(F)cc1C(=O)Nc1ccc(C(=O)N2Cc3cccn3Cc3ccccc32)c(Cl)c1,-0.77
C=CC(=O)Nc1cccc(C)c1Nc1ncc2cc(-c3c(Cl)c(OC)cc(OC)c3Cl)ccc2n1,4.06
